Assay results from different studies.
A part holds a random share of what one study measured.

Study 1
Target: RNA binding protein fox-1 homolog 2, RRM domain, GST-SBP tag (RBFOX2, Homo sapiens, UniProt O43251-10, residues 100-194)
Method: RNA Bind-n-Seq
Molecule type: RNA
Matrix: in vitro
Tested at: 365 nM
Setting: natural RNA segment, single round, ends assumed
Relative to: no-protein control
Reading: higher = stronger binding
Shared flanks, not repeated: GGGAGUUCUACAGUCCGACGAUC … UGGAAUUCUCGGGUGCCAA
Construct (chain): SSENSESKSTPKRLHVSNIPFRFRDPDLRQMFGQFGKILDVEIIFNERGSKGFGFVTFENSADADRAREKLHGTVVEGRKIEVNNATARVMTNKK
Strand | RBNS enrichment (R)
GAACAUGAAAUUUAGUUGUGGUUAAAUUAUUUAUUUAUUUCAUGCAUUCAUUUUAUUUCCCUUAAGGUCUGGAUGAGACUUCUUUGGGGAGCCUCUAAAAAAAUUUUUCA | 0.617
GGGCCAACACACGCCCCUGCCCCUCGUAGGCACCUGCCUGCCCCACACGGACUCCCGGGCCACGCCCCAGCCCGACAAUGUCGAGUAUAUUAUUAUUAAUAUUAUUAUGA | 2.49
AAAAUCUGGGGGCUGCCACUGUACUUAACAUCUUCAUUUGAAGCCUUUCAGAUUUCCAUAAAGCCAGCAAUCAGAAAGGAUCUCUCUUCCAUACCACUGUUCUUGCUAAA | 0.281
CAUAGAUCUCCACACCUGGCUUGUAACUAUUUUGAGGCUGAAAGAGCUAAUGAAGGGCCCUGCCUAGAUCCAGACUUUCUGACAUCAAAUUAGGGAAGUGGAGGAAAUUA | 0.661
UGUUAAUUUGUUUUAAGAGAAUUAUAUUUUUUGGAAUUUACAGAGAAUUGCAUUCAUGGCUUUCAAUUGUAAAUAUGCUAAGGGUAUUUUAAUAAAUCUUGGUUUCAUGU | 0.699
CCCAGCACACUCCCUGUGGGAUGGCCGCUGCUCAGGACACAGUGGGACAAAGUUGGGUUGAUAGGAUAUUUUAGAUUCAUUUUACCUUUGACAAGGGCAGGCCUUGAAUU | 0.491

Study 2
Target: Interferon regulatory factor 7, full length, phosphomimetic (IRF7, Homo sapiens, UniProt Q92985, residues 1-503, S101K/S471D/S472D/S475D/S476D/S477D/S483D/S484D/S487D)
Method: protein-binding microarray
Molecule type: double-stranded DNA, one strand shown
Matrix: in vitro
Tested at: 250 nM
Setting: 60-bp whole probe
Together with: salmon DNA 0.4 mg/ml
Relative to: random background probes
Reading: higher = stronger binding
Shared flanks, not repeated: GCCTAGCAC … GTCTTGATTCGCTTGACGCTGCTG
Residues (chain): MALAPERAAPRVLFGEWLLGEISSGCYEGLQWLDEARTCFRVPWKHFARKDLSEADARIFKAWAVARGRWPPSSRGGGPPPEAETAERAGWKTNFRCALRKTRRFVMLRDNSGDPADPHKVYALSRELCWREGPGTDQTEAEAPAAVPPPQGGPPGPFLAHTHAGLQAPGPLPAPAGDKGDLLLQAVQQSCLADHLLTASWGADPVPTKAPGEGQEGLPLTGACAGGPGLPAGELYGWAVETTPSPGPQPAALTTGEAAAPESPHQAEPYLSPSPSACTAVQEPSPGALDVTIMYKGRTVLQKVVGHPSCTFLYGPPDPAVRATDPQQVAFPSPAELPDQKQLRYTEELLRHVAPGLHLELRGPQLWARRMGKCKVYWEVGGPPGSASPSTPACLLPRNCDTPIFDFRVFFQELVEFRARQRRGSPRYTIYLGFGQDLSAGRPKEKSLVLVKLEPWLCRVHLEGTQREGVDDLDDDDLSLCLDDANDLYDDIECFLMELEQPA
Strand | log fluorescence [z-score]
TGTTCATTTTCAAAACTGTTGTGCTAG | 2.06
GACGGTTTCGACTTTTGGGACGTGCTA | 8.91
GACGGACTGGGACTGGGGAAGTGCTAG | -0.701
GACGATATCGGGACAGGAGACGTGCTA | -0.238
GACGATATCAGTTTCGAGAGGTGCTAG | 2.06
TTACGTATCGGTTTCGGTTAGTGCTAG | 8.96
TTAGAACTGGGGTATCGATAAGTGCTA | -0.242

Study 3
Target: Histone acetyltransferase KAT6A, both winged helices, GST fusion (KAT6A, Homo sapiens, UniProt Q92794, residues 1-181)
Method: protein binding microarray
Molecule type: double-stranded DNA, one strand shown
Matrix: in vitro
Tested at: not given
Setting: 8-mer, flanks averaged, mean of 2 arrays, mostly near background
Relative to: not given
Reading: higher = stronger binding
Target sequence (chain): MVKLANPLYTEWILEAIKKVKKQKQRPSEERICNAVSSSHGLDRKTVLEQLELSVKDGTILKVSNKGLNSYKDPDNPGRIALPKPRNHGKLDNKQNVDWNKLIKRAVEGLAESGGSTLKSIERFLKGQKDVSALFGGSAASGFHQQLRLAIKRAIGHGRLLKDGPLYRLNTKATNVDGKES
Strand | E-score
ATAACTAG | 0.0426
CGTGTTTC | 0.0505
ACGATCCC | 0.0329
CCAGGTAC | -0.186
GACTATAC | -0.00918
AAGTCGGT | -0.113
ATCATGGC | -0.0329

Mixed results
Molecule | target | assay | system | setting | how to read | measurement | result
PhoQ, residues 284 288 289 292 302 303 ASVMEA | PhoP, residues 12 14 15 18 19 NHFIF (Escherichia coli, UniProt P23836) | Sort-seq, item: YFP reporter | E. coli | PhoQ-PhoP variant library, together with: 10 µM Mg2+ | relative to: high Mg2+ state, higher = stronger signaling | fold induction | 30.2

Some of these lines once more (study 2):
Strand | log fluorescence [z-score]
GACGATATCGGGACAGGAGACGTGCTA | -0.238
GACGATATCAGTTTCGAGAGGTGCTAG | 2.06
TTACGTATCGGTTTCGGTTAGTGCTAG | 8.96
